Experimental data from different studies.
Parts stem from different laboratories: compare values within a part only. Substitutions count along the parent as printed.

Sample 1 — method: RNA Bind-n-Seq; molecule type: RNA; sample: in vitro; tested at: 200 nM; setting: whole 134-nt RNA, ends assumed; added: 150 mM KCl; relative to: input library; direction: higher = stronger binding
Target: Ras GTPase-activating protein-binding protein 1, full length (G3BP1, Homo sapiens, UniProt Q13283)
UniProt Q13283, sequence (whole entry, looked up): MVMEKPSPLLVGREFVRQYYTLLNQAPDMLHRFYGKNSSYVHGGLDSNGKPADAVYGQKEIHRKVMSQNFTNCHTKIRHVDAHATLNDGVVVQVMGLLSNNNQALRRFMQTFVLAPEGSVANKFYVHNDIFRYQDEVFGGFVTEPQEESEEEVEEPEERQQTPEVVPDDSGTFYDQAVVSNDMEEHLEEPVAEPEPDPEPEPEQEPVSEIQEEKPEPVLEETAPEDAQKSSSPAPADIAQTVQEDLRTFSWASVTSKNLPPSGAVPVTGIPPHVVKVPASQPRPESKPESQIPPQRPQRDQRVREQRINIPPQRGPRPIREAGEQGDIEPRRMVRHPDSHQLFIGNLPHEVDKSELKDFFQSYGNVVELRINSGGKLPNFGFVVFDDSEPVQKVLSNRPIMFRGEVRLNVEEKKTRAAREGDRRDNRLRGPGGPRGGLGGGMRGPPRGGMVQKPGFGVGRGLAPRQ
Strand	log2 enrichment
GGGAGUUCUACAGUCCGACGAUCUCCUGUGCUACACAUCGUAUGUACCGAAUCGGGGAAAAAAAGGGGAAAGGGGAAAGGGGAAAGUAUUAUGUUACGCCGUUCGGAUCUGCAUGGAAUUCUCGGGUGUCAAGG	0.825
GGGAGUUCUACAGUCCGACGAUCAGUCCUGUGCUACACAUCGUAUGUACCGAAUCGGUUUUUGGGGUUUUUGGUUUUUGGAAAGUAUUAUGUUACGCCGUUCGGAUCUGCACUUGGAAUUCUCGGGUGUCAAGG	-0.968
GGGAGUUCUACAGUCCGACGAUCCUCAAGUCCUGUGCUACACAUCGUAUGUACCGAAUCGGUUUGGAAAAAGGAGGAAAGUAUUAUGUUACGCCGUUCGGAUCUGCACUUCCAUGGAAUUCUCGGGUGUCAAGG	-0.382
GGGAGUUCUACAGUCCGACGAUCCACAGACAACACGCACCCAAACAGACACAGAGGGAAGGGGUUGGGAUGGGGACAGGGUGCACAGCAGGGCGGGGUAGGACCCCAGCCCCUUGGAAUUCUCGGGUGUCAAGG	1.91
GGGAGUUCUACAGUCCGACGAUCGUCCUGUGCUACACAUCGUAUGUACCGAAUCGGAAAAAGGGAAAAAGGGGAAAAAGGGAAAGUAUUAUGUUACGCCGUUCGGAUCUGCACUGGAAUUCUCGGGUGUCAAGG	-0.436
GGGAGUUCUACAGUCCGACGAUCACCAUGCAGGUGGGCAUCUUUGGGAACUGGGGCAAGGGGGGGAUAGGGAGGGGGGUAACACUUUGGGAACAGGUGGUCCCAGGUCGUUUCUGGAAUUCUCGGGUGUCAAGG	1.17
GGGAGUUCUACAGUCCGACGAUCACCAUGCAGGUGGGCAUCUUUGGGAAGUGGGGCAAGGGGGGCAUAGGGAGGGGGGUAACACUUUGGGAACAGGUGGUCCCAGGUCGUUUCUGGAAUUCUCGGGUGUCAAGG	0.965
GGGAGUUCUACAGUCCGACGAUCCACAGACAACACGCACCCACACAGACACAGAGGGAAGGGGUUGGGAUGGGGACAGGGUGCACAGCAGGGCGGGGUAGGACCCCAGCCCAUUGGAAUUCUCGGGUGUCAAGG	1.93
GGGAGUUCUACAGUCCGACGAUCCCUGUGCUACACAUCGUAUGUACCGAAUCGGGGAAAAAAGGGGAAAAAAGGGAAAAAAGGGAAAGUAUUAUGUUACGCCGUUCGGAUCUGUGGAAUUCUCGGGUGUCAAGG	-0.28
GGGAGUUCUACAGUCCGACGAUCCCUGUGCUACACAUCGUAUGUACCGAAUCGGGGCCCCCCGGGGCCCCCCGGCCCCCCGGGAAAGUAUUAUGUUACGCCGUUCGGAUCUGCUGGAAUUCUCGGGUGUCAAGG	-0.599
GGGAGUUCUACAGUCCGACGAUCUUAAGUUGAAGGAGCGCUACCGCAACGUGCUGGACACCAUGUUCGAGCUGCUGCCCCGGAUGGCCAGGUACUGCCAGCCCCCACCCUGGCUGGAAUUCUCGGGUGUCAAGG	-0.29
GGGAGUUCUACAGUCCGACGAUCUGGCCCUGGUGGCAUGCGGGGAGGAAGAGGUGGCCUCAUGGACCGUGGUGGUCCCGGUGGAAUGUUCAGAGGUGGCCGUGGUGGAGACAGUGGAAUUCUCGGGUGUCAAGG	0.382
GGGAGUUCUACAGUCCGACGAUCUGGAUUUUCAAGACACGAAUGCUCGGAGUCUGGCAGAAAGGAAGAGAGAAGAGGAGAAGCAGAAGCACUUGGAUAAAAUUUAUCAAGAAAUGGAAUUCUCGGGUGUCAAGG	-0.436
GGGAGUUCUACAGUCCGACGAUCAGUCCUGUGCUACACAUCGUAUGUACCGAAUCAAAUUUUUUUAAACCCAAACCCAAAAAAGUAUUAUGUUACGCCGUUCGGAUCUGCACUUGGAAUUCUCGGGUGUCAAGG	-0.574

Sample 2 — method: DHFR PCA, deep sequencing; sample: yeast; added: (+)-ABA 4.8 µM; relative to: wild-type fitted maximum; direction: higher = stronger binding
Target: ABI1, truncated, D143A, DHFR fusion (Arabidopsis thaliana)
Setting: methotrexate growth selection, single substitutions
Starting sequence: PYL1, truncated, DHFR fusion (Arabidopsis thaliana); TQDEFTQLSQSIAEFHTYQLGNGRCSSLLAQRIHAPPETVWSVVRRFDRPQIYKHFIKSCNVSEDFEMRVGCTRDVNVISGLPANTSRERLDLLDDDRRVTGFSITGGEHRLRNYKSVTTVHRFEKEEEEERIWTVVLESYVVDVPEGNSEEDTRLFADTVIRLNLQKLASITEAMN; partner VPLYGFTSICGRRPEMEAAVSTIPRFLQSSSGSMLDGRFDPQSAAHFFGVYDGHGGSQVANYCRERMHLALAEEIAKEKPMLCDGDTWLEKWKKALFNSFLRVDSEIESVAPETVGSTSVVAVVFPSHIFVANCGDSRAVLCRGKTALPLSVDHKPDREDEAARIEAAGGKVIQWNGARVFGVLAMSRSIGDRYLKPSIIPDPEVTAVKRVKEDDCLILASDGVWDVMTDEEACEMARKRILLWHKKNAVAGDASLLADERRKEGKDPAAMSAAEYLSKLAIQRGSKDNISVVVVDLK
Substitution	relative binding score
I172T	34.4%
E67R	61.4%
E67C	64.3%
R24K	79.1%
E131V	69.4%
K126G	93.7%
M176W	63%
R32M	65.4%
D159R	-7.46%
N149T	30.4%
T86H	68%
L28H	-5.79%
R32F	56.2%
L94C	13.2%
L28W	17.8%

Sample 3 — method: protein binding microarray; molecule type: double-stranded DNA, one strand shown; sample: in vitro; tested at: not given; relative to: not given; direction: higher = stronger binding
Target: Histone acetyltransferase KAT6A, both winged helices, GST fusion (KAT6A, Homo sapiens, UniProt Q92794, residues 1-181)
Setting: 8-mer, flanks averaged, mean of 2 arrays, mostly near background
Target sequence (chain): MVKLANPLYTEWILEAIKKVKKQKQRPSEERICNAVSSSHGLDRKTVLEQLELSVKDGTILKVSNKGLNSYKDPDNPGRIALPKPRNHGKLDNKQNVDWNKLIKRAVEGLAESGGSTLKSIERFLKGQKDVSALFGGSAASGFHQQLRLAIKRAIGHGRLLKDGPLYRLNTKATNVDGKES
Strand	E-score
CGATGCTA	0.0823
CGTAGCGC	0.339
GAATATTA	0.0268
AGTGAACT	-0.0964
GACGATAC	0.11
CAGACACG	0.165
ACATAGAA	-0.155
ACCCCCTG	-0.0842
CAGGCCAA	-0.191
GTCGCGAA	0.216
GGGAAGAA	-0.0705
ACGTGCCG	0.239
CGGTCCCC	0.0724
ACAACACA	-0.12
ACTATGTC	-0.059
AACTGAAC	-0.0362
ACGCGCTG	0.245
TGTGCGAA	0.0131
CCGCGGCG	0.395

Sample 4 — method: universal PBM; molecule type: double-stranded DNA, one strand shown; sample: in vitro; tested at: 600 nM; direction: higher = stronger binding
Target: Sal-like protein 4, full length isoform A (SALL4, Homo sapiens, UniProt Q9UJQ4, residues 1-1053)
UniProt Q9UJQ4, sequence (whole entry, looked up): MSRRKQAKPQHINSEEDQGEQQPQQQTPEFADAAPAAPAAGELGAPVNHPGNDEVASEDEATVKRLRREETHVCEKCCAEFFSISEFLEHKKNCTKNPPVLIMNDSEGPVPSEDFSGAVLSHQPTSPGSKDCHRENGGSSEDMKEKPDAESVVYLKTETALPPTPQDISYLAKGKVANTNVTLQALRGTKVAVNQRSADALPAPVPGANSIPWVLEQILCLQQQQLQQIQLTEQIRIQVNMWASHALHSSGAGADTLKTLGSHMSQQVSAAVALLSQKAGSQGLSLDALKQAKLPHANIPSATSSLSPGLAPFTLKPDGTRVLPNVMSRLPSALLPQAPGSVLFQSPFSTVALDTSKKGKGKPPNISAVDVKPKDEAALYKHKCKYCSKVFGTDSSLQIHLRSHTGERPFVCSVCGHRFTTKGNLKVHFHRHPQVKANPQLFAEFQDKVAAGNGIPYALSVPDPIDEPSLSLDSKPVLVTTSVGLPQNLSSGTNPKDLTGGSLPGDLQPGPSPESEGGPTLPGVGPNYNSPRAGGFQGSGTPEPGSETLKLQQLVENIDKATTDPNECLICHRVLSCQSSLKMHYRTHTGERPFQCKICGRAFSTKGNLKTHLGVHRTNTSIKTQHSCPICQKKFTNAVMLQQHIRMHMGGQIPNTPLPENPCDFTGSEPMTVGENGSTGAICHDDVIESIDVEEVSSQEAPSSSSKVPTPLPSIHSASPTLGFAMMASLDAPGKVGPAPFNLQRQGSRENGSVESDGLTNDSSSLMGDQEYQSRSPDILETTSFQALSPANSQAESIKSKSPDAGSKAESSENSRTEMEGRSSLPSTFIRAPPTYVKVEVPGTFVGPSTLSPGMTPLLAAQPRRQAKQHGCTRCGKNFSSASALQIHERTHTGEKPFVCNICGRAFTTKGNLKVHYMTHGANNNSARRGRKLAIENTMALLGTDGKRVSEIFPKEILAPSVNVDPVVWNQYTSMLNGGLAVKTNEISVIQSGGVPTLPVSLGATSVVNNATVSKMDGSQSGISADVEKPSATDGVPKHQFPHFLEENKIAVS
Setting: 8-mer, flanks averaged, mean of replicates
Strand	E-score
AGTACGCA	-0.0687
CGGGCCGA	-0.466
CGCCTCAA	-0.0813
CGATCTAG	-0.0363
GGCTCGGA	-0.301
CAAATATG	0.347
AGGGCTCC	-0.339
AGCATTAG	0.052
AGACACGG	-0.091
AAAACCTG	0.0215
CACCGTTC	-0.105
GCCATGAA	-0.0745
AAGTACAG	0.116

Sample 5 — method: RNA Bind-n-Seq; molecule type: RNA; sample: in vitro; tested at: not given; setting: RNA with constant flanks, ends assumed; relative to: input RNA pool; direction: higher = stronger binding
Target: RING finger protein unkempt homolog, zinc fingers 1-6, GST-SBP tag (UNK, Homo sapiens, UniProt Q9C0B0, residues 30-357)
Residues (chain): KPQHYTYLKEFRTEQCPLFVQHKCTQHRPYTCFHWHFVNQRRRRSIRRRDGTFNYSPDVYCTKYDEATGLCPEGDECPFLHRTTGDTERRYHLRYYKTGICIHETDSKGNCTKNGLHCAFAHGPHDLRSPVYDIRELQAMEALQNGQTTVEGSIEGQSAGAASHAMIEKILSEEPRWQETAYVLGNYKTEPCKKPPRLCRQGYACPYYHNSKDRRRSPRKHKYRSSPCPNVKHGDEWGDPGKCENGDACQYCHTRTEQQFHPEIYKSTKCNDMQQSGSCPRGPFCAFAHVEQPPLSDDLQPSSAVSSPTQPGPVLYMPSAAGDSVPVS
Strand	bound/input enrichment [ratio]
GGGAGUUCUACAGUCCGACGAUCGUGCUGCAGCAGCUCCCAGCCCCGUGCUAGGAAACAUGCCCCCAGGAGAUGGCAUGCCAGCCGGUCCCGUGCCACCAGGGUUCUUUCAGCCUUUUAUGUCGCCUCGGUACCCUGGCGGCCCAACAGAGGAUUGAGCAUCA	0.245
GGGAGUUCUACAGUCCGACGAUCUUACGUGUUGGUGCUGAUAAUCAUGUGCUACCCUUGGACUGUGUUACUCUUCAGACAUUUUCCGCUAAGUGUUUGGGACCUUUUGAUGAAUGGGAAAGCAGACUUAGGGUUGCAAAAGAACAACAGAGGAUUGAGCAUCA	0.212
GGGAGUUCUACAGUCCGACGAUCAGAUAAACUGUCCAUUCUUUCAUUUGGAAGCUAAUUAUGUAGACCAUUUAAAUGGAUAUUACCGAUGACAACUUAAUACAAUGUUUUCUCUAGGCCUAAAGAUGUCGGAAGACCCAAGGCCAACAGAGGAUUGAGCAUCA	0.389
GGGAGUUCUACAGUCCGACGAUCGGGCAGUUUGCUUUCCAUGUUGGUCUUCCUGCAAAAUCUGGAGUUGCUGGGGGCAUUCUUUCCGUUGUCCCCAAUGUUAUGGGUAUGAUGUGCUGGUCUCCUCCUCUGGAUAAGAUGGGCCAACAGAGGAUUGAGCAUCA	0.554
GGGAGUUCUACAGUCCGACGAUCAAUGAAUCACUGAACAACCUCUUUAUUACUGAAGAAGAUUACCAGGCUCUGCGAACAUCAACCGAUGCUUAUGACAACUUUGACAACAUCUCACUUGCUCAGCGUUUGGAAAAACACGAACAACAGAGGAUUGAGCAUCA	0.0941
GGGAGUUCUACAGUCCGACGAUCUUUUUUUUUUCUGUGUAAAUCAUCAACUAUAAGAAGAAACUAUGGGACUCUAAGCCUGGCUUCCGAGAAUUUACAGUGGACAAAUAGGUUUCAUCAAACCAGUUUUUAAUCAUUCUGACUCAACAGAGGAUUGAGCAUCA	0.26
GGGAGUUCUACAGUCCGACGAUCCGCAAUACUAUUGCUUCCAUUGCUGCUGGUGUACUAUUUUUUACAGGCUGGUGGAUUAUCACCGAUGCAGCUGUUAUUUAUCCCACCAUGAAAGAUUUCAACCACUCAUACCAUGCCUGUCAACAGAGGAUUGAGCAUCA	0.245

Sample 6 — target: CCNB2, cyclin fold, Cln2 fusion (human); method: yeast growth competition, sequencing; sample: yeast; setting: weak parent motif; relative to: not given; direction: higher = stronger binding
Starting sequence: INSM1 docking peptide (human); PKAIRKLHFEDEV
Substitution	normalised enrichment score
K2R	0.0618
A3P	-0.0432
A3T	0.0657
E10C	0.214
L7M	0.485
F9L	0.369
F9D	0.13
K6P	-0.177
D11N	0.739
K6F	0.0524
I4K	0.708
K2I	0.559
E12A	0.493
L7Q	0.111
F9H	0.568
D11G	0.442
D11K	0.605

Some of these lines once more (sample 2):
Substitution	relative binding score
T86H	68%
M176W	63%
E67R	61.4%
R32F	56.2%
N149T	30.4%
